Experimental data pooled from the literature.
Each numbered part is a random draw from the data of one study; scales do not carry over between parts. Numbers after ± are the reported error.
Sequence of UniProt P02769 (whole entry, looked up): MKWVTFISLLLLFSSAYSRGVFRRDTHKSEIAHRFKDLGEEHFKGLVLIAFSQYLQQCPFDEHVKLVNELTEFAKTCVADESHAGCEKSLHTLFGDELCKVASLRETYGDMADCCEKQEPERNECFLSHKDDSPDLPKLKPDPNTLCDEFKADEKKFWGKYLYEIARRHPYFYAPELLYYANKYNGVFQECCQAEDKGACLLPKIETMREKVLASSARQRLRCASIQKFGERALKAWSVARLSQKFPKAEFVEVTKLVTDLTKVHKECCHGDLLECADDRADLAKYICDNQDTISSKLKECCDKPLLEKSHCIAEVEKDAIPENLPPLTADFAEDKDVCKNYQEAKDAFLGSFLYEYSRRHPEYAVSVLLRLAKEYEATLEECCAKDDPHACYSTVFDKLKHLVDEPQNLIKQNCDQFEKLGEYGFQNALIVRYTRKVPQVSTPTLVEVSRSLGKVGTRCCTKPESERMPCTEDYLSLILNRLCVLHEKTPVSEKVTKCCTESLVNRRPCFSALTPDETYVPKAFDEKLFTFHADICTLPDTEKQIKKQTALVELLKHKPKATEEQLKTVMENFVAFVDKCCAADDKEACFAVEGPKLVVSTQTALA
Sequence of UniProt P11387 (whole entry, looked up): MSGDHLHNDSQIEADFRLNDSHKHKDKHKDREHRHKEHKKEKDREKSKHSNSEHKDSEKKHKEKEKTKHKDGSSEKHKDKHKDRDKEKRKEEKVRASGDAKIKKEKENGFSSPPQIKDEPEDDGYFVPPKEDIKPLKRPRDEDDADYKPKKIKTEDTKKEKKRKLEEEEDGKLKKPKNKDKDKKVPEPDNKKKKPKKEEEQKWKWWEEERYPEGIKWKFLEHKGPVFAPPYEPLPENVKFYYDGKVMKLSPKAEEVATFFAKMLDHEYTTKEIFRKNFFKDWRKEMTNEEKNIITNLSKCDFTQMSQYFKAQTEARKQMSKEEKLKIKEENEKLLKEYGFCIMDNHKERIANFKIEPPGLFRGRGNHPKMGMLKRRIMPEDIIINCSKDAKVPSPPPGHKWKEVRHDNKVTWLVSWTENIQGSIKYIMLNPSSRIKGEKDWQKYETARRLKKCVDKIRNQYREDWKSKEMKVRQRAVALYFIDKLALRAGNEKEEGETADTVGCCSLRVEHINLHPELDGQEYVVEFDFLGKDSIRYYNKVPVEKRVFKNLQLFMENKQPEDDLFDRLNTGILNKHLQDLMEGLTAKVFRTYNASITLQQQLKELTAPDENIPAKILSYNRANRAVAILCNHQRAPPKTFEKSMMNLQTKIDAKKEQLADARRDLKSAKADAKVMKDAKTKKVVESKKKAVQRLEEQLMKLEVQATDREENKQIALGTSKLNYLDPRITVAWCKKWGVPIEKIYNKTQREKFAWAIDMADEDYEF

Block 1 — target: HIV-1 TAR RNA; tested at: concentration not given; temperature: 25 °C
| Compound | binding enthalpy ΔH° [kcal/mol] |
| --- | --- |
| CC(=O)NCCN(CC(=O)NCCN(CC(=O)NCCN(CC(=O)NCCC(N)=O)C(=O)C[C@@H](N)CCCCN)C(=O)C[C@@H](N)Cc1ccccc1)C(=O)C[C@@H](N)Cc1ccccc1 | -7.55 ± 0.311 |
| CC(=O)NCCN(CCC(=O)NCCN(CCC(=O)NCCN(CCC(=O)NCCC(N)=O)C(=O)[C@@H](N)CCCNC(=N)N)C(=O)[C@@H](N)CCCNC(=N)N)C(=O)[C@@H](N)Cc1ccccc1 | -12.8 ± 0.311 |
| CC(=O)NCCN(CC(=O)NCCN(CC(=O)NCCN(CC(=O)NCCC(N)=O)C(=O)[C@@H](N)CCCCN)C(=O)[C@@H](N)Cc1ccccc1)C(=O)[C@@H](N)Cc1ccccc1 | -13 ± 0.335 |

Block 2 — cell line: TZM-bl
SMILES: CNCc1ccc2c(c1)C[C@H](CNC(=N)N)[C@H]2NC(=O)C(=O)Nc1ccc(Cl)c(F)c1
| organism | read-out | technique | strain | IC80 [µM] |
| --- | --- | --- | --- | --- |
| Human immunodeficiency virus 1 | viral infection | Env pseudovirus | 6535.3 clade B | 0.832 |
| Human immunodeficiency virus 1 | viral infection | Env pseudovirus | ZM53M.PB12 clade C | > 100 |
| Human immunodeficiency virus 1 | viral infection | Env pseudovirus | ZM197M.PB7 clade C | 4.78 |
| Human immunodeficiency virus 1 | viral infection | Env pseudovirus | 231965.c01 clade D | 10.5 |
| Human immunodeficiency virus 1 | viral infection | Env pseudovirus | 6244_13_B5_4576 clade B T/F | 15 |
| Human immunodeficiency virus 1 | viral infection | Env pseudovirus | 6952.v1.c20 clade CD | 16.5 |
| Human immunodeficiency virus 1 | viral infection | Env pseudovirus | CAP210.2.00.E8 clade C | 28.1 |
| HIV-1 | pseudovirus infection | Env pseudovirus neutralisation | clade A | 34.9 |

Mixed results
| SMILES | target or system | assay | system | conditions | quantity | result |
| --- | --- | --- | --- | --- | --- | --- |
| C[C@H](Nc1ncnc(N)c1C#N)c1c(-c2ccccc2)[nH]c2c(Cl)cccc2c1=O |  |  | CB17 SCID mice, xenograft, plasma | oral, 100 mg/kg once daily, day 1 | Tmax | 2 h |
| CN1CCN(c2ccc3[nH]c(-c4ccc5[nH]c(-c6ccc(OCCCCNC(=O)c7ccc8c(c7)C7(OC8=O)c8ccc(N(C)C)cc8C(C)(C)c8cc(N(C)C)ccc87)cc6)nc5c4)nc3c2)CC1 | Albumin (ALB, Bos taurus, UniProt P02769) |  | PBS | 1 µM, 1 h, with: 25 mg/mL albumin | fluorescence quantum yield | 0.181 ± 0.007 |
| F[P-](F)(F)(F)(F)F.OC(Cn1cncn1)(Cn1cc(-[c-]2cccc2)nn1)c1ccc(F)cc1F.[Co+3].c1cc[cH-]c1 (racemic) | Candida albicans | EUCAST | SC5314 | 48 h | MIC50 | 100 µM |
| CC[C@H](C)[C@H](NC(=O)[C@H](Cc1ccccc1)NC(=O)[C@@H]1CCn2cc(nn2)-c2cccc(c2)-c2cn(nn2)CC[C@H](NC(=O)[C@H](CCC(N)=O)NC(=O)[C@H](CCCCN)NC(=O)[C@H](CO)NC(=O)[C@H](CC(C)C)NC(=O)[C@H](CC(=O)O)NC(=O)[C@H](CO)NC(=O)[C@@H](NC(=O)[C@H](Cc2ccccc2)NC(=O)[C@@H](NC(=O)CNC(=O)[C@H](CCC(=O)O)NC(=O)CNC(=O)[C@@H](N)Cc2c[nH]cn2)[C@@H](C)O)[C@@H](C)O)C(=O)N[C@@H](CCC(=O)O)C(=O)N[C@@H](CCC(=O)O)C(=O)N[C@@H](CCC(=O)O)C(=O)N[C@@H](C)C(=O)N[C@@H](C(C)C)C(=O)N[C@@H](CCCNC(=N)N)C(=O)N1)C(=O)N[C@@H](CCC(=O)O)C(=O)N[C@@H](Cc1c[nH]c2ccccc12)C(=O)N[C@@H](CC(C)C)C(=O)N[C@@H](CCCCN)C(=O)N[C@@H](CC(N)=O)C(=O)NCC(=O)NCC(=O)N1CCC[C@H]1C(=O)N[C@@H](CO)C(=O)N[C@@H](CO)C(=O)NCC(=O)N[C@@H](C)C(=O)N1CCC[C@H]1C(=O)N1CCC[C@H]1C(=O)N1CCC[C@H]1C(=O)N[C@@H](CO)C(N)=O |  | RP-HPLC | trypsin digest | 75 µM, pH 7.4, room temperature, with: trypsin 500 ng/µL | half-life | 3.2 h |
| C1=[N+]2CCC[N+]3=Cc4ccc5[n]4[Au-]23[n]2c1ccc2-c1nc2ccccc2nc1-5.F[P-](F)(F)(F)(F)F | DNA topoisomerase 1 (TOP1, Homo sapiens, UniProt P11387) |  |  |  | switch to catalytic inhibition concentration | 1 to 10 µM |

For quick reference, copied from above (block 2):
| organism | read-out | technique | strain | IC80 [µM] |
| --- | --- | --- | --- | --- |
| Human immunodeficiency virus 1 | viral infection | Env pseudovirus | ZM53M.PB12 clade C | > 100 |
| Human immunodeficiency virus 1 | viral infection | Env pseudovirus | 231965.c01 clade D | 10.5 |
